# Measured values from different studies.
# Each numbered part is a random draw from the data of one study; scales do not carry over between parts.
# Sequence of UniProt P06213 (whole entry, looked up): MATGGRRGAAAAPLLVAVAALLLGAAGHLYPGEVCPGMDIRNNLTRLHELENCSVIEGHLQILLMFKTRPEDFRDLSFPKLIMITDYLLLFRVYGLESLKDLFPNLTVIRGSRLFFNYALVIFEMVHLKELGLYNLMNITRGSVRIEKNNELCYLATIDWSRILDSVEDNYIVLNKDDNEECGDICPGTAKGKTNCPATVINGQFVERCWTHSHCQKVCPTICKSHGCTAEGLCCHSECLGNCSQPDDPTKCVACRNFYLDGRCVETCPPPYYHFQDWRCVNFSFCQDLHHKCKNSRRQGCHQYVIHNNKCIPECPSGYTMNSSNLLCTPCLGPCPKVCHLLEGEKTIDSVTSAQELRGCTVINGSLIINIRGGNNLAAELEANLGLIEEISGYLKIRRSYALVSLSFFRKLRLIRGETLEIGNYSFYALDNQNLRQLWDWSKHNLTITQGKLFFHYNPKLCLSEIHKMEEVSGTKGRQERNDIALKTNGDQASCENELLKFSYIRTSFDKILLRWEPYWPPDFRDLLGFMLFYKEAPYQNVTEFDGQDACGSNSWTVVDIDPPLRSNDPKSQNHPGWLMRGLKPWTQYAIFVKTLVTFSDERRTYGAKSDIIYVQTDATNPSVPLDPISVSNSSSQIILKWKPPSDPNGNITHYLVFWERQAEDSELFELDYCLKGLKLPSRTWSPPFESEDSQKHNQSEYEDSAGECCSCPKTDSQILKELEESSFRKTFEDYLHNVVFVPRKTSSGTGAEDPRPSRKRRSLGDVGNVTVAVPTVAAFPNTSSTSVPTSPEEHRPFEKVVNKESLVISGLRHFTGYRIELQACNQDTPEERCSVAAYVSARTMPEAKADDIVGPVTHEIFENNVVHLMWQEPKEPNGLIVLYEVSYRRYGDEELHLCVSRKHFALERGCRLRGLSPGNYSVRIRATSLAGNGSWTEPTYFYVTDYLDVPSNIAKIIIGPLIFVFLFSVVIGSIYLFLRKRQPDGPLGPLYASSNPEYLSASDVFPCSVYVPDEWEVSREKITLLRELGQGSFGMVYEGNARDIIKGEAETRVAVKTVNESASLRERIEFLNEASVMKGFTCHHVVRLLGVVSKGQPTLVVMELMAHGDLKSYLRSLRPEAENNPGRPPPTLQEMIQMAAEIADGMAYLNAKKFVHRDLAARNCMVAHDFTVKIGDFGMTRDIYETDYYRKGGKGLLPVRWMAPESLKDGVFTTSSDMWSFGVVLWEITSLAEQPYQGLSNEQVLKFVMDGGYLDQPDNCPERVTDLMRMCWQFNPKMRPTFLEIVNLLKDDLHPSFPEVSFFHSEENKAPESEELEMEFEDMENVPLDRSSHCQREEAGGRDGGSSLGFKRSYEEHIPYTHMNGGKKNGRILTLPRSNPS
# Sequence of UniProt P78362 (whole entry, looked up): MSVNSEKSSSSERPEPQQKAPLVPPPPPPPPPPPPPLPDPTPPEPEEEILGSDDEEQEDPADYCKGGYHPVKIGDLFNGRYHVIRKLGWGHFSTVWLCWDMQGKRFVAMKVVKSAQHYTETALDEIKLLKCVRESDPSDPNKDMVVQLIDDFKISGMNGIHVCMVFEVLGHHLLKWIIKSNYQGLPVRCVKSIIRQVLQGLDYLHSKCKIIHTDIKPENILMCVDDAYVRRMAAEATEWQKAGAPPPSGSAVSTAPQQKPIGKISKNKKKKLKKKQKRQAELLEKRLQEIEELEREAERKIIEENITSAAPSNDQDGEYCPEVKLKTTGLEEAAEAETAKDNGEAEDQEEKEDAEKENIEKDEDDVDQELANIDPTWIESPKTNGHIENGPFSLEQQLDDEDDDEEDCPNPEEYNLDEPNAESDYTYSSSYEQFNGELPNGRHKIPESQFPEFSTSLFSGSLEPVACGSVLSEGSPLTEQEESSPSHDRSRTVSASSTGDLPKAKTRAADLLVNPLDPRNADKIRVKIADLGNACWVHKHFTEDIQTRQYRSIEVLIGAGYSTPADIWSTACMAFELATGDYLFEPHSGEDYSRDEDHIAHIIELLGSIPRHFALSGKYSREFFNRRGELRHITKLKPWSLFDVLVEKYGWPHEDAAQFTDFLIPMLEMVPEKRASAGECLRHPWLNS
# Sequence of UniProt Q04771 (whole entry, looked up): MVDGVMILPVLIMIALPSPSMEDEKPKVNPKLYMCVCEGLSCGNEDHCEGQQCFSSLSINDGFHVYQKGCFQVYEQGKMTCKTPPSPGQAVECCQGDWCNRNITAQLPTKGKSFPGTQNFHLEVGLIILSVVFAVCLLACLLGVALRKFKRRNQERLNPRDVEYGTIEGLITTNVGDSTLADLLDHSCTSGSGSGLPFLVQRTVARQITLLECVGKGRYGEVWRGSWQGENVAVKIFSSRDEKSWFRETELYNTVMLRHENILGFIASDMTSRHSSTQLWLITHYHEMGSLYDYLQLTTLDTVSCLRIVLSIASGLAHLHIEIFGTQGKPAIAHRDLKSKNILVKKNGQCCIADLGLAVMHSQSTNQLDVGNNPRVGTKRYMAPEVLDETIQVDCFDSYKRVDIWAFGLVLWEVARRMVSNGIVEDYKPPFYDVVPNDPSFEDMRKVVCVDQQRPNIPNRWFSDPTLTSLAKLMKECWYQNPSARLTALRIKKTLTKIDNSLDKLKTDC
# Sequence of UniProt P13945 (whole entry, looked up): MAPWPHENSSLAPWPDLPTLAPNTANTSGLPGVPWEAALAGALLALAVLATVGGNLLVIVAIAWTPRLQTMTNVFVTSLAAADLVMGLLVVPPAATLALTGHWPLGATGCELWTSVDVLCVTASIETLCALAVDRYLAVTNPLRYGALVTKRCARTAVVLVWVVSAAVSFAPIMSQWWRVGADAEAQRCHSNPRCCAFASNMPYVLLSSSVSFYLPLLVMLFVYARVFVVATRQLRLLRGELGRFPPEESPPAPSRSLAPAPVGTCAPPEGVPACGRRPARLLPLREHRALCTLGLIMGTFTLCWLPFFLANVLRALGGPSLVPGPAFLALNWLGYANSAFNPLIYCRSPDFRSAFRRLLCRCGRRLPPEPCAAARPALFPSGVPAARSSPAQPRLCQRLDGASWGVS
# Sequence of UniProt Q9Y5N1 (whole entry, looked up): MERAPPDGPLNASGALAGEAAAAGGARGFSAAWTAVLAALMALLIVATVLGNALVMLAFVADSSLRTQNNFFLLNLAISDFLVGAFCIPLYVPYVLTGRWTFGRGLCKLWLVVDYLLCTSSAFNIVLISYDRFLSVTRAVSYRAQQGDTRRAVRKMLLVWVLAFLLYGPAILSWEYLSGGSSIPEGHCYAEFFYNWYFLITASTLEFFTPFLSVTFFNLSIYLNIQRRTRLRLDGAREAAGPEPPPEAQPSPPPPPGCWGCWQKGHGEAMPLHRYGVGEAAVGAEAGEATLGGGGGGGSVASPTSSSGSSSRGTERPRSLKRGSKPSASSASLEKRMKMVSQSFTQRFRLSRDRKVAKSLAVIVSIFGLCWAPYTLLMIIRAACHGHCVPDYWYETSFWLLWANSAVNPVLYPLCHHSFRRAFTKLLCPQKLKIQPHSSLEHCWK
# Sequence of UniProt P08172 (whole entry, looked up): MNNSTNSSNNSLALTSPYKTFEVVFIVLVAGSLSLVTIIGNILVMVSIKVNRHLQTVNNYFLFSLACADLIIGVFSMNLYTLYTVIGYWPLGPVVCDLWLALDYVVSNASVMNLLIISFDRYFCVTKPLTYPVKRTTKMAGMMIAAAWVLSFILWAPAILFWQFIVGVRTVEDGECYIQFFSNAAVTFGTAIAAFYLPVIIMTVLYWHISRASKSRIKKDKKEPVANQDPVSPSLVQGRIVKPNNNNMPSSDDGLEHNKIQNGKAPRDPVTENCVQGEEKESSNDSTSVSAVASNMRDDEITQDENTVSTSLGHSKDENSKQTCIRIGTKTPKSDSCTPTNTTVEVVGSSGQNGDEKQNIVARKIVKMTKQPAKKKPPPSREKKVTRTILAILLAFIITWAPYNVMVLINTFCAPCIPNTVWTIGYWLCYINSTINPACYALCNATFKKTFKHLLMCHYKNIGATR
# Sequence of UniProt Q96RR4 (whole entry, looked up): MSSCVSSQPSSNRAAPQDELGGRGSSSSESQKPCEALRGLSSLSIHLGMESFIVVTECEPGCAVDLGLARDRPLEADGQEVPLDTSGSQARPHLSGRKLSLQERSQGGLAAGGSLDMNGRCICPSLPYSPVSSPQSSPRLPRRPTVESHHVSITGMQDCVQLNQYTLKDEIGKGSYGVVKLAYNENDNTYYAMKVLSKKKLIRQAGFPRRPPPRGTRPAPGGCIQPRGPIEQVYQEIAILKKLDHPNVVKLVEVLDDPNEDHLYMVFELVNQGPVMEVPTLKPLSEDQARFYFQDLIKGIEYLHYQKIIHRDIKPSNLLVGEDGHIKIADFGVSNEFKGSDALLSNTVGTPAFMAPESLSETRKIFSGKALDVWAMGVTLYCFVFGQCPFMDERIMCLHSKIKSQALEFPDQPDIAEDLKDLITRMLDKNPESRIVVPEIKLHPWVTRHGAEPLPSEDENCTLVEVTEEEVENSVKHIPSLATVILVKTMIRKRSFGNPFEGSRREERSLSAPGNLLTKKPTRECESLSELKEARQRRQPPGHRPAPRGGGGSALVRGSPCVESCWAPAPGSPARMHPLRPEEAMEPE
# Sequence of UniProt P28221 (whole entry, looked up): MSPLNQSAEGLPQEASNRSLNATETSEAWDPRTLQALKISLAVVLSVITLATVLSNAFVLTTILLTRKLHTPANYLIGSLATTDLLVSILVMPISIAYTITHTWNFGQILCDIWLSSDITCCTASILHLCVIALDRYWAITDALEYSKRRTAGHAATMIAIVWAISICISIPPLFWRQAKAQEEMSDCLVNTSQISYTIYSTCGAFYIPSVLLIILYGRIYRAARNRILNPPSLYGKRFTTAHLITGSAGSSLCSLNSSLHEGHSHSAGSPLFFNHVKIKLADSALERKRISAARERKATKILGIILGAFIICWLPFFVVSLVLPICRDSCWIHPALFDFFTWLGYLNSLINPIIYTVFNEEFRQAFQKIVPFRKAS

# Set 1
# SMILES: COc1ccc2c(c1)O[C@H](c1ccc(OC)c(OC)c1)C[C@@H]2NC(=O)C1(c2ccc3c(c2)OC(F)(F)O3)CC1
# Read-out: cell-free assay
# Tested at: 10 µM
target,inhibition [%]
"Muscarinic acetylcholine receptor M2 (CHRM2, Homo sapiens, UniProt P08172)",-9.38
"5-hydroxytryptamine receptor 1D (HTR1D, Homo sapiens, UniProt P28221)",4.36
"Sigma intracellular receptor 2 (TMEM97, Homo sapiens, UniProt Q5BJF2)",85.8
"Muscarinic acetylcholine receptor M4 (CHRM4, Homo sapiens, UniProt P08173)",-2.72
"5-hydroxytryptamine receptor 1E (HTR1E, Homo sapiens, UniProt P28566)",-16.3
"Alpha-2B adrenergic receptor (ADRA2B, Homo sapiens, UniProt P18089)",37.5
"Histamine H2 receptor (HRH2, Homo sapiens, UniProt P25021)",-6.08
"Histamine H3 receptor (HRH3, Homo sapiens, UniProt Q9Y5N1)",-10.7
"Beta-3 adrenergic receptor (ADRB3, Homo sapiens, UniProt P13945)",3.77

# Set 2
# Species: mouse
# Sample: microsomes or S9
# Tested at: 2 µM
# Time: 0.5 h
SMILES,remaining compound [%]
O=C(NCC(F)(F)F)c1nnn(-c2ccc(NS(=O)(=O)c3cccnc3)cc2)n1,71.8
CC(=O)Nc1ccc(-n2nnc(C(=O)NCCCN(C)C)c2N)cc1,86.9
COc1ccc(Nc2nnc(-c3ccc(C)c(S(=O)(=O)NCc4ccccn4)c3)c3ccccc23)cc1C(N)=O,3.75
CC(=O)c1c(NN2CCOCC2)oc(C)cc1=O,64.3
NC1=NN(c2ccc(Oc3ccccc3)c(S(=O)(=O)O)c2)C(=O)C1,> 100
COc1cc(OC)cc(OC/C(=C\c2ccc(C(=O)O)cc2)CNc2cnc3ccccc3c2)c1,26.8

# Set 3
# Compound: O=C(Nc1cnn(-c2csc(C(=O)NC3COC3)c2)c1)Nc1c(F)cccc1Cl
# Read-out: enzyme activity
# Tested at: 5 µM
# Baseline: untreated control
target,remaining activity
"Ephrin type-A receptor 6 (EPHA6, Homo sapiens, UniProt Q9UF33)",95.3%
"Serine/threonine-protein kinase Sgk3 (SGK3, Homo sapiens, UniProt Q96BR1)",86.3%
"Calcium/calmodulin-dependent protein kinase kinase 2 (CAMKK2, Homo sapiens, UniProt Q96RR4)",78.7%
"Activin receptor type-1 (ACVR1, Homo sapiens, UniProt Q04771)",95%
"Mitogen-activated protein kinase 9 (MAPK9, Homo sapiens, UniProt P45984)",21.8%
"Serine/threonine-protein kinase Nek7 (NEK7, Homo sapiens, UniProt Q8TDX7)",87.6%
"SRSF protein kinase 2 (SRPK2, Homo sapiens, UniProt P78362)",93.8%
"Serine/threonine-protein kinase ULK2 (ULK2, Homo sapiens, UniProt Q8IYT8)",90.2%
"cAMP-dependent protein kinase catalytic subunit beta (PRKACB, Homo sapiens, UniProt P22694)",86.4%
"Insulin receptor (INSR, Homo sapiens, UniProt P06213)",97.9%

# Set 4
# Organism: Sarcocystis neurona
# Read-out: parasite activity
# Tested at: 10 µM
# Time: 96 h
SMILES,activity class
CC(=O)/N=c1/sc(S(N)(=O)=O)nn1C,inactive
Cc1nc2n(c(=O)c1CCN1CCC(c3noc4cc(F)ccc34)CC1)CCCC2,inactive
O=C(c1ccc(OCCN2CCCCC2)cc1)c1c(-c2ccc(O)cc2)sc2cc(O)ccc12,inactive
CC[C@H]1OC(=O)[C@H](C)[C@@H](O[C@H]2C[C@@](C)(OC)[C@@H](O)[C@H](C)O2)[C@H](C)[C@@H](O[C@@H]2O[C@H](C)C[C@H](N(C)C)[C@H]2O)[C@](C)(O)C[C@@H](C)CN(C)[C@H](C)[C@@H](O)[C@]1(C)O,inactive
C[C@@H](O)[C@H]1C(=O)N2C(C(=O)O)=C(S[C@@H]3CN[C@H](C(=O)N(C)C)C3)[C@H](C)[C@H]12,inactive
Nc1nc(Cl)nc2c1ncn2[C@H]1C[C@H](O)[C@@H](CO)O1,inactive
CC(=O)Nc1nnc(S(N)(=O)=O)s1,inactive
Cc1c(O)cccc1C(=O)N[C@@H](CSc1ccccc1)[C@H](O)CN1C[C@H]2CCCC[C@H]2C[C@H]1C(=O)NC(C)(C)C,inactive
